Results collected from several papers.
Each line is one published result; not all experiments were run side by side. ± marks the error that the study gave.
Chain of UniProt O43613 (whole entry, looked up): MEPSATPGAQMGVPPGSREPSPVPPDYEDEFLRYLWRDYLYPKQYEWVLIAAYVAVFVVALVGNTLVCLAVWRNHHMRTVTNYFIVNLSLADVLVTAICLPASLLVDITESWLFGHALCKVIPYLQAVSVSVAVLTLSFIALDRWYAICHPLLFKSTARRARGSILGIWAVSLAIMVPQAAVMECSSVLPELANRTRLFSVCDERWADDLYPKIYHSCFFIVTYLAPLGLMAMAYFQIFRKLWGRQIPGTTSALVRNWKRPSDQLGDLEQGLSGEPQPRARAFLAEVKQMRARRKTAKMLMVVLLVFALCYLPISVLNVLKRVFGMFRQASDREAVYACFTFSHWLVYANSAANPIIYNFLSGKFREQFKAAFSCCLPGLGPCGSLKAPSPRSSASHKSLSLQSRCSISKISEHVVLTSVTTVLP

Substance	tested on	assay	system	conditions	scale	endpoint	value
C[C@]12CC[C@@H]3c4ccc(O)cc4CC[C@H]3[C@@H]1C[C@@H](O)[C@@H]2O		GC-MS	breast cancer women on NSAI, serum	vaginal, 0.03 mg, 8 h, day 0		minimum serum concentration	0 ng/mL
COc1cc2c(cc1OC)C(Cc1ccc(OS(C)(=O)=O)c(OC)c1)N(CC(=O)NCc1ccccc1)CC2 (stereo not drawn)	HCRTR1 (Homo sapiens, UniProt O43613)	calcium signal, antagonist, fluorescence				Kb	480 nM
CCC(CC)COC(=O)[C@H](C)N[P@](=O)(OC[C@H]1O[C@@](C#N)(c2ccc3c(N)ncnn23)[C@H](O)[C@@H]1O)Oc1ccccc1			20% w/w aqueous SBECD	24 h, pH 1.9, 25 °C		equilibrium solubility	9730 µg/mL
CS(=O)(=O)n1cc2c(n1)CN([C@H]1CO[C@H](c3cc(F)ccc3F)[C@@H](N)C1)C2			healthy male human, plasma	oral, 100 mg once weekly, day 15, fasted, geometric mean		concentration at 168 h	61.1 nM
O=C1N=C(N2CCOCC2)CN1c1ccc(Cl)cc1			beagle dog, both sexes, plasma	oral, 30 mg/kg, tablets, fed, day 0		AUC(0-inf)	88800 ng·h/mL
CCCOc1ccc([C@H]2CNC(=O)N2c2ccc3[nH]cnc3c2)cc1			non-elderly adults, fasted, plasma	oral, 20 mg twice daily, day 11, oral solution, geometric mean		AUC(0-12h)	120 ng·h/mL
O=C(O)/C=C/c1ccc(O)c(O)c1		UPLC-MS/MS	Wistar rat, microcirculation dysfunction model, plasma	oral, 100 mg/kg Salvia miltiorrhiza stem-leaf extract FS		MRT(0-inf)	13.2 ± 6.53 h
CC1(C)C2CC[C@]1(C)C(=O)/C2=C/c1cc2ccccc2o1			human red blood cells	10 to 300 µg/mL, 30 min		maximum hemolysis	< 15%
C[C@H]1Oc2cc(cnc2N)-c2c(nn(C)c2C#N)CN(C)C(=O)c2ccc(F)cc21			mouse Balb/c nude female, plasma	5 mg/kg BID, 12 h, Lu-01-0015 and NCI-H3122 models		free Cmin,ss	120 to 134 nM
CCCCN1C(=O)C(CC(C)C)NC(=O)C12CCN(Cc1ccc(Oc3ccccc3)cc1)CC2.Cl (stereo not drawn)			male rat	oral, 30 mg/kg		oral bioavailability	1.3%
CC#CC(=O)N1CCC[C@H]1c1nc(-c2ccc(C(=O)Nc3ccccn3)cc2)c2c(N)nccn12			Japanese patients, plasma	oral, 100 mg twice daily, day 8, fasting, multiple dose, geometric mean		AUC(0-12h)	1210 ng·h/mL
OC[C@H]1O[C@@H](c2ccc(Cl)c(Cc3ccc(O[C@H]4CCOC4)cc3)c2)[C@H](O)[C@@H](O)[C@@H]1O			male ICR mouse, liver	oral, 3 mg/kg, 24 h		AUC	2930 ng·h/mL
CCCC[C@H](NC(C)=O)C(=O)N[C@H]1CCC(=O)NC[C@@H](C(=O)N[C@@H](Cc2c[nH]c3ccccc23)C(N)=O)NC(=O)[C@H](CCCNC(=N)N)NC(=O)[C@@H](Cc2ccccc2)NC(=O)[C@H](Cc2c[nH]cn2)NC1=O			healthy human, both sexes, plasma	subcutaneous, 3.0 mg once daily, day 7, geometric mean		Vss/F	316 L
C[N+]1(CC(=O)OC2CCCCCCCCCCC2)CCNCC1.[I-]			phosphate buffer with 2% DMSO	90 min, pH 7.4, theoretical maximum 200 µM		aqueous solubility	185 µM
O=C(O)c1ccc2c(c1)C(=O)CCc1ccccc1C(=O)N2		nephelometry	aqueous buffer	30 min, pH 6.5		kinetic solubility	> 100 µg/mL
colistin B methanesulfonate		one-compartment PK model	rat	i.p., 40 mg/kg colistin base activity		rate of conversion to colistin	1.46 ± 0.124 mL/min/kg
CS/C(S)=N/CCCC[S+](C)[O-] (racemic)		RT-PCR	Sprague-Dawley rat female, mammary gland	oral gavage, 200 mg/kg, 4 days	relative to: vehicle	mRNA level	0.12 fold change
N[C@@H](CCC(=O)O)C(=O)O			octanol/phosphate buffer	pH 7.0, N-4-nitrobenzoyl amino acid derivatives	relative to: glycine derivative	Π (relative logD)	-1.85 ± 0.4

Substance	tested on	assay	system	conditions	scale	endpoint	value
CC(C)[C@H](NC(=O)[C@@H]1CCCN1C(=O)[C@H](CCCNC(=N)N)NC(=O)[C@H](CS)NC(=O)[C@H](Cc1c[nH]c2ccccc12)NC(=O)[C@H](CCCNC(=N)N)NC(=O)[C@@H](Cc1ccccc1)NC(=O)[C@H](Cc1c[nH]cn1)NC(=O)[C@H](CCC(=O)O)NC(=O)[C@H](CS)NC(=O)[C@H](CS)NC(=O)[C@H](CCCCN)NC(=O)[C@@H]1CC(=O)N[C@@H](CCCNC(=N)N)C(=O)N[C@@H]([C@@H](C)O)C(=O)N[C@@H](CC(=O)O)C(=O)N[C@H](Cc2ccc(O)cc2)C(=O)N1)C(N)=O [technetium-99m labelled]			C57 mouse, female, B16/F1 melanoma, brain	intravenous, 2 h, with: NDP-MSH 10 µg co-injected		tissue uptake	0.08 ± 0.06 %ID/g
Cn1c([N+](=O)[O-])cnc1COc1ccc(S(C)(=O)=O)cc1			BALB/c mouse, whole blood	oral, 200 mg/kg fexinidazole, single dose		time above EC99	≥ 24 h
Cc1c2c(n(-c3ccc(Cl)cc3Cl)c1-c1ccc(OS(=O)(=O)CCC(F)(F)F)cc1)CCN(N1CCCCC1)C2=O			cynomolgus monkey 2, plasma	intravenous infusion, 0.3 mg/kg, 90 min, PET study midpoint		plasma concentration	143 nM
CCOC(=O)[C@H](C)C[C@@H](Cc1ccc(-c2ccccc2)cc1)NC(=O)CCC(=O)O			male human, plasma	oral, 400 mg, day 7, alone, adjusted geometric mean		AUCtau at steady state	3260 ng·h/mL
C=CC(=C)CC[C@]1(C)[C@H](C)C[C@H](OC)[C@@]23C(=C[C@H](OC(=O)C(C)C)C[C@@H]12)[C@@H](OC(C)=O)O[C@H]3OC(C)=O		haemolysis		20 µM		haemolysis	14.4%
S=C(NCCCc1c[nH]cn1)NCCCN(Cc1ccc(Cl)c(Cl)c1)c1ccc(Br)cn1			male C57BL/6 mice, plasma	intraperitoneal, 30 mg/kg, 0.5 h		plasma concentration	2530 ng/mL
CN[C@@H]1[C@H](O)[C@H](NC)[C@H]2O[C@]3(O)[C@H](O[C@@H]2[C@H]1O)O[C@H](C)C[C@H]3NC(=O)Cc1cc(Cl)ccn1		glutathione conjugation	human liver S9	100 µM, 2 h, pH 7.4, with: glutathione 0.2 mM		parent remaining	98.7%
CC(C)NC[C@@H](C(=O)N1CCN(c2ncnc3c2[C@H](C)C[C@H]3O)CC1)c1ccc(Cl)cc1			human, Moderate hepatic function, plasma	oral, 100 mg single dose, NCI classification, geometric mean		AUC(0-∞)	1030 ng·h/mL
CN(C)C(=O)c1cc2cnc(Nc3ccc(N4CCNCC4)cn3)nc2n1C1CCCC1			patients Rb+ solid tumours	oral, 600 mg continuous, treatment-related adverse events		QT prolongation grade 3	0%
CC[C@H](C)[C@H](NC(=O)[C@H](CC(C)C)NC(=O)[C@H](Cc1c[nH]c2ccccc12)NC(=O)[C@H](C)NC(=O)[C@@H](NC(=O)[C@H](Cc1ccccc1)NC(=O)[C@H](CC(=O)O)NC(=O)[C@H](CCCNC(=N)N)NC(=O)[C@H](C)NC(=O)[C@H](C)NC(=O)[C@H](CC(C)C)NC(=O)[C@H](C)NC(=O)[C@H](CC(=O)O)NC(=O)[C@H](CC(C)C)NC(=O)[C@@H](NC(=O)[C@@H](NC(=O)[C@H](C)NC(=O)[C@H](CC(C)C)NC(=O)[C@H](CCC(=O)O)NC(=O)[C@H](CO)NC(=O)[C@H](CO)NC(=O)[C@H](Cc1ccccc1)NC(=O)[C@@H](NC(=O)CNC(=O)[C@H](CCC(=O)O)NC(=O)CNC(=O)[C@@H](N)Cc1cnc[nH]1)[C@@H](C)O)[C@@H](C)O)[C@@H](C)CC)[C@@H](C)CC)C(=O)N[C@@H](C)C(=O)N[C@H](C(=O)N[C@@H](CCCCN)C(=O)N[C@H](C(=O)N[C@H](C(=O)N[C@@H](CC(=O)O)C(=O)N[C@@H](CCCCN)C(=O)N[C@@H](CCCCN)C(=O)N[C@@H](CCCCN)C(=O)N[C@@H](CCCCN)C(=O)N[C@@H](CCCCN)C(=O)N[C@@H](CCCCN)C(N)=O)[C@@H](C)O)[C@@H](C)CC)[C@@H](C)O		immunoaffinity LC-MS/MS	healthy human subjects, plasma	subcutaneous, 5 mg once weekly, day 36 after 6 doses, steady state, geometric mean		AUCtau	833 pmol·h/L
CCCCCCN(CCCCCC)CC(=O)N(CC(=O)N(CCCCN)CC(=O)N(CCN)CC(=O)N(CC(N)=O)C1CCCCC1)C1CCCCC1		preparative RP-HPLC C18	water to acetonitrile gradient	0.05% TFA in eluent	higher = more hydrophobic	acetonitrile at elution	64.5%
CNC(=O)c1cccc2cc(Oc3ccnc4cc(OCC5(N)CC5)c(OC)cc34)ccc12			human	oral, 10 mg, cycle 1 day 15, multiple dose, continuous arm		Vss/F	163 ± 140 L
COc1cc2c3c(n(CCCN4CCOCC4)c(=O)c2cc1OC)-c1cc2c(cc1C3=O)OCO2			patients, plasma	intravenous infusion, 10 mg/m^2 daily over 1 h, cycle 1 day 3		AUC(0-24 h)	2890 ng·h/mL
COC(=O)C[C@](O)(CCCC(C)(C)O)C(=O)O[C@@H]1C(OC)=C[C@]23CCCN2CCc2cc4c(cc2[C@H]13)OCO4			CD1 mouse, heart	subcutaneous, 1 mg/kg, 24 h, below quantification limit 1.00 ng/mL		tissue concentration	not detected
C[C@@H]1[C@H](c2c(F)ccc(F)c2F)C[C@H](NC(=O)c2cnc3c(c2)C[C@@]2(C3)C(=O)Nc3ncccc32)C(=O)N1CC(F)(F)F			healthy male human, urine and feces	oral, 50 mg, 14 days, total radioactivity		dose excreted	~89%
CNC(=O)c1cc(Oc2ccc(NC(=O)Nc3ccc(Cl)c(C(F)(F)F)c3)cc2)ccn1		echocardiography	human	oral, 400 mg twice daily, 39 days		LVEF	25%
Cc1nc2cccc(OCC(C)(C)C(=O)NC(C)C)c2c(N)c1C(=O)O			male Sprague-Dawley rat, plasma	oral gavage, 30 mg/kg, day 1		Tmax	19.8 min
CC(C)=CCC[C@](C)(O[C@@H]1O[C@H](CO)[C@@H](O)[C@H](O)[C@H]1O)[C@H]1CC[C@]2(C)[C@@H]1[C@H](O)C[C@@H]1[C@@]3(C)CC[C@H](O)C(C)(C)[C@@H]3[C@@H](O[C@@H]3O[C@H](CO)[C@@H](O)[C@H](O)[C@H]3O)C[C@]12C			Sprague Dawley rat, male, plasma	oral, 25 mg/kg, pure ginsenoside mixture in water		AUC(0-inf)	1200 ± 300 ng·h/mL
